{"data": "Assay results of several laboratories", "note": "A part holds a random share of what one study measured. Changes are numbered by the printed parent chain."}
{"data": "Study 1", "target": "Sox-I, HMG box (Salpingoeca helianthica)", "technique": "Spec-seq", "form": "double-stranded DNA, one strand shown", "sample": "in vitro", "concentration": "not given", "setting": "whole probe, mean of replicates", "reference": "not given", "reading": "lower = stronger binding", "all sequences stand within": "GAGTCGTCTCGTCAGCAC … CCGTAGAGCACTCAGGTC", "Target sequence (chain)": "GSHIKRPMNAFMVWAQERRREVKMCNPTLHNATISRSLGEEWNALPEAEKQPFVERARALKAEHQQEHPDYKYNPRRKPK"}
{"Strand": "GTGTGTT", "relative binding energy": "0.384 ln ratio"}
{"Strand": "CATTCTG", "relative binding energy": "0.77 ln ratio"}
{"Strand": "CATCTTA", "relative binding energy": "0.495 ln ratio"}
{"Strand": "ATGGGTT", "relative binding energy": "0.532 ln ratio"}
{"Strand": "CATGGGC", "relative binding energy": "1.1 ln ratio"}
{"Strand": "GATTGTT", "relative binding energy": "-1.86 ln ratio"}
{"Strand": "CATTCGG", "relative binding energy": "1.22 ln ratio"}
{"Strand": "CTTCGTT", "relative binding energy": "0.565 ln ratio"}
{"data": "Study 2", "target": "Interferon regulatory factor 5, full length, phosphomimetic (IRF5, Homo sapiens, UniProt Q13568-2, residues 1-514, S451D/S453D/S456D/S462D)", "technique": "protein-binding microarray", "form": "double-stranded DNA, one strand shown", "sample": "in vitro", "concentration": "940 nM top", "setting": "60-bp whole probe", "together with": "salmon DNA 0.4 mg/ml", "reference": "random background probes", "reading": "higher = stronger binding", "all sequences stand within": "GCCTAGCAC … GTCTTGATTCGCTTGACGCTGCTG"}
{"Strand": "TTAGATTTCCGTTTCGATTAGTGCTAG", "fitted relative affinity [z-score]": 4.61}
{"Strand": "CTAATTTTGAGACTCATGGGGTGCTAG", "fitted relative affinity [z-score]": -0.109}
{"Strand": "TTAGAACTGATTATCGATTAGTGCTAG", "fitted relative affinity [z-score]": -0.0357}
{"Strand": "GACGATATCGAGTATCGAGACGTGCTA", "fitted relative affinity [z-score]": 1.61}
{"Strand": "TCAGTTTCCTTCCTCTTACTGTGCTAG", "fitted relative affinity [z-score]": 3}
{"Strand": "ACTTCCCTCGGGTTGCGGAGCGTGCTA", "fitted relative affinity [z-score]": -0.161}
{"Strand": "TTAGGAATCGGTTTCGGTTAGTGCTAG", "fitted relative affinity [z-score]": 9.1}
{"Strand": "TTAGGTTTCCGGTATCGGTTAGTGCTA", "fitted relative affinity [z-score]": 4.85}
{"data": "Single results of other studies", "P1": "viral docking peptide; KKAKRRLFTISDS"}
{"Molecule": "P1 K4A", "target": "CCNB1, cyclin fold, Cln2 fusion (human)", "test": "yeast growth competition, sequencing", "system": "yeast", "setting": "weak parent motif", "scale": "reference: not given, higher = stronger binding", "quantity": "normalised enrichment score", "value": 0.347}
{"Molecule": "PhoQ, residues 284 288 289 292 302 303 ALASRC", "target": "PhoP, residues 12 14 15 18 19 LQHIR (Escherichia coli, UniProt P23836)", "test": "Sort-seq, item: YFP reporter", "system": "E. coli", "setting": "PhoQ-PhoP variant library, together with: 10 µM Mg2+", "scale": "reference: high Mg2+ state, higher = stronger signaling", "quantity": "fold induction", "value": 12.9}
{"note": "Some of these lines once more (study 2):"}
{"Strand": "CTAATTTTGAGACTCATGGGGTGCTAG", "fitted relative affinity [z-score]": -0.109}
{"Strand": "TTAGAACTGATTATCGATTAGTGCTAG", "fitted relative affinity [z-score]": -0.0357}
